{"data": "Assay results gathered from unrelated publications", "method": "steady-state kinetics", "B1": "ERAP1 (Homo sapiens, UniProt Q9NZ08); chain MVFLPLKWSLATMSFLLSSLLALLTVSTPSWCQSTEASPKRSDGTPFPWNKIRLPEYVIPVHYDLLIHANLTTLTFWGTTKVEITASQPTSTIILHSHHLQISRATLRKGAGERLSEEPLQVLEHPRQEQIALLAPEPLLVGLPYTVVIHYAGNLSETFHGFYKSTYRTKEGELRILASTQFEPTAARMAFPCFDEPAFKASFSIKIRREPRHLAISNMPLVKSVTVAEGLIEDHFDVTVKMSTYLVAFIISDFESVSKITKSGVKVSVYAVPDKINQADYALDAAVTLLEFYEDYFSIPYPLPKQDLAAIPDFQSGAMENWGLTTYRESALLFDAEKSSASSKLGITMTVAHELAHQWFGNLVTMEWWNDLWLNEGFAKFMEFVSVSVTHPELKVGDYFFGKCFDAMEVDALNSSHPVSTPVENPAQIREMFDDVSYDKGACILNMLREYLSADAFKSGIVQYLQKHSYKNTKNEDLWDSMASICPTDGVKGMDGFCSRSQHSSSSSHWHQEGVDVKTMMNTWTLQKGFPLITITVRGRNVHMKQEHYMKGSDGAPDTGYLWHVPLTFITSKSDMVHRFLLKTKTDVLILPEEVEWIKFNVGMNGYYIVHYEDDGWDSLTGLLKGTHTAVSSNDRASLINNAFQLVSIGKLSIEKALDLSLYLKHETEIMPVFQGLNELIPMYKLMEKRDMNEVETQFKAFLIRLLRDLIDKQTWTDEGSVSERMLRSQLLLLACVHNYQPCVQRAEGYFRKWKESNGNLSLPVDVTLAVFAVGAQSTEGWDFLYSKYQFSLSSTEKSQIEFALCRTQNKEKLQWLLDESFKGDKIKTQEFPQILTLIGRNPVGYPLAWQFLRKNWNKLVQKFELGSSSIAHMVMGTTNQFSTRTRLEEVKGFFSSLKENGSQLRCVQQTIETIEENIGWMDKNFDKIRVWLQSEKLEHDPEADATG", "B2": "GTPBP3 E459K (Homo sapiens, UniProt Q969Y2); chain TRRSSGAPAPGSGATIFALSSGQGRCGIAVIRTSGPASGHALRILTAPRDLPLARHASLRLLSDPRSGEPLDRALVLWFPGPQSFTGEDCVEFHVHGGPAVVSGVLQALGSVPGLRPAEAGEFTRRAFANGKLNLTEVEGLADLIHAETEAQRRQALRQLDGELGHLCRGWAETLTKALAHVEAYIDFGEDDNLEEGVLEQADIEVRALQVALGAHLRDARRGQRLRSGVHVVVTGPPNAGKSSLVNLLSRKPVSIVSPEPGTTRDVLETPVDLAGFPVLLSDTAGLREGVGPVEQEGVRRARERLEQADLILAMLDASDLASPSSCNFLATVVASVGAQSPSDSSQRLLLVLNKSDLLSPEGPGPGPDLPPHLLLSCLTGEGLDGLLEALRKELAAVCGDPSTDPPLLTRARHQHHLQGCLDALGHYKQSKDLALAAKALRVARGHLTRLTGGGGTEEILDIIFQDFCVGK", "B3": "UGT1A9 (Homo sapiens, UniProt O60656); chain GKLLVVPMDGSHWFTMRSVVEKLILRGHEVVVVMPEVSWQLGRSLNCTVKTYSTSYTLEDLDREFKAFAHAQWKAQVRSIYSLLMGSYNDIFDLFFSNCRSLFKDKKLVEYLKESSFDAVFLDPFDNCGLIVAKYFSLPSVVFARGILCHYLEEGAQCPAPLSYVPRILLGFSDAMTFKERVRNHIMHLEEHLLCHRFFKNALEIASEILQTPVTEYDLYSHTSIWLLRTDFVLDYPKPVMPNMIFIGGINCHQGKPLPMEFEAYINASGEHGIVVFSLGSMVSEIPEKKAMAIADALGKIPQTVLWRYTGTRPSNLANNTILVKWLPQNDLLGHPMTRAFITHAGSHGVYESICNGVPMVMMPLFGDQMDNAKRMETKGAGVTLNVLEMTSEDLENALKAVINDKSYKENIMRLSSLHKDRPVEPLDLAVFWVEFVMRHKGAPHLRPAAHDLTWYQYHSLDVIGFLLAVVLTVAFITFKCCAYGYRKCLGKKGRVKKAHKSKTH", "B4": "ltaE H83N (Escherichia coli, UniProt P75823); chain MIDLRSDTVTRPSRAMLEAMMAAPVGDDVYGDDPTVNALQDYAAELSGKEAAIFLPTGTQANLVALLSHCERGEEYIVGQAANNYLFEAGGAAVLGSIQPQPIDAAADGTLPLDKVAMKIKPDDIHFARTKLLSLENTHNGKVLPREYLKEAWEFTRERNLALHVDGARIFNAVVAYGCELKEITQYCDSFTICLSKGLGTPVGSLLVGNRDYIKRAIRWRKMTGGGMRQSGILAAAGIYALKNNVARLQEDHDNAAWMAEQLREAGADVMRQDTNMLFVRVGEENAAALGEYMKARNVLINASPIVRLVTHLDVSREQLAEVAAHWRAFLAR", "B5": "acryloyl-CoA reductase (Metallosphaera sedula, UniProt A4YGN2); chain MKAVVVKGHKQGYEVREVQDPKPASGEVIIKVRRAALCYRDLLQLQGFYPRMKYPVVLGHEVVGEILEVGEGVTGFSPGDRVISLLYAPDGTCHYCRQGEEAYCHSRLGYSEELDGFFSEMAKVKVTSLVKVPTRASDEGAVMVPCVTGMVYRGLRRANLREGETVLVTGASGGVGIHALQVAKAMGARVVGVTTSEEKASIVGKYADRVIVGSKFSEEAKKEDINVVIDTVGTPTFDESLKSLWMGGRIVQIGNVDPTQSYQLRLGYTILKDIAIIGHASATRRDAEGALKLTAEGKIRPVVAGTVHLEEIDKGYEMLKDKHKVGKVLLTT", "B6": "cyc1 L72V (Streptomyces coelicolor, UniProt Q9K499); chain MHAFPHGTTATPTAIAVPPSLRLPVIEAAFPRQLHPYWPKLQETTRTWLLEKRLMPADKVEEYADGLCYTDVMAGYYLGAPDEVLQAIADYSAWFFVWDDRHDRDIVHGRAGAWRRLRGLLHTALDSPGDHLHHEDTLVAGFADSVRRLYAFLPATWNARFARHFHTVIEAYDREFHNRTRGIVPGVEEYLELRRLTFAHWIWTDLLEPSSGCELPDAVRKHPAYRRAALLSQEFAAWYNDLCSLPKEIAGDEVHNLGISLITHHSLTLEEAIGEVRRRVEECITEFLAVERDALRFADELADGTVRGKELSGAVRANVGNMRNWFSSVYWFHHESGRYMVDSWDDRSTPPYVNNEAAGEK", "B7": "putA N1014A (Rhodobacter capsulatus, UniProt D5AN87); chain MTDLSALGPKAKFAPEAEVLQALVAQAALPQPQLDRIAARGADLVARIRAEAKPSLMEHFLAQYGLSTREGVALMCLAEAMLRVPDTATIDALIEDKIAPSDWGKHLGTAASSLVNASTWALMLTGKVLDDGAGGIAGTLRGAMRRLGEPVIRAAVGQAMREMGRQFVLGETIEKALERAEKREAEGYTFSYDMLGEAALTAADAERYRLAYAQAITAIGKAATRGSIAANPGISIKLSALHPRYEVAQEARVMAELVPVVRDLARAAARAGIALHIDAEEQDRLALSLRVMAAVIADPETAGWEGFGAVVQAYGKRAGAAIDALAAMARAAGRRINIRLVKGAYWDAEMKRAQVEGHPGFPLFTSKTGTDVAYICLAAKLFGLNDCIYPQFATHNAHTVAAVLEMAAGRPFEFQRLHGMGARLHDIVLRETGGRCRIYAPVGAHRDLLAYLVRRLLENGANSSFVNQIVNESVPPAEVAACPFAALPTARAPRGLLAPADLFGAGRVNAQGFDLSDPEVLARIEAARDVTLPDAAPIVAGPVSGTLRPVRNPATGAVVAQVTEADAATVALALDAAQVWSAPAATRAAVLCRAADLYEENFGPIFAALAQEAGKTLGDAVSELREAVDFLRYYAAEGAADTRPPRGAVVAISPWNFPLAIFTGQVAAALMAGNAVLAKPAEQTPIIAALAVRLLHQAGVPETALQLLPGDGPTVGAALTRDPRVAGVVFTGSTETAQIIARAMAAHLAPGTPLIAETGGLNAMVVDSTALPEQAVRDVVASAFRSAGQRCSALRCLYVQDDIAPHLIGMLKGAMEELVSGDPARLSTDVGPVIDAEAKAGIETYLAANKARILHRSTAPEGGHFVAPALLQVGGIADLEREIFGPVLHLATFAAEDLPAVIAAINARGYGLTFGLHSRIDARVETVAETIRAGNIYVNRNQIGAVVGSQPFGGEGLSGTGPKAGGPLYLNRFYAPEPVVAVGGWTEAATPILPEARETQLDEIFLPGPTGELARLTRHQRGPILCLGPGAEAASAQAAAVVALGGQAVQASGAVSPKALETLTPLAGVLWWGAAEMGRAYAQALAVRPGPLVPLITAKPDLAHVAHERHLCVDTTAAGGNAALLAG", "B8": "protein (Enterobacter lignolyticus, UniProt E3G9I4); chain MSQVQSGILPEHCRAAIWIEANVKGDVNALRECSKVFADKLAGFEAQFPDAHLGAVVAFGHDTWRALSGGVGAEELKDFTPYGKGLAPATQYDVLIHILSLRHDVNFSVAQAAMAAFGDAVEVKEEIHGFRWVEERDLSGFVDGTENPAGEETRREVAVIKDGVDAGGSYVFVQRWEHNLKQLNRMSVHDQEMMIGRTKVANEEIDGDERPETSHLTRVDLKENGKGLKIVRQSLPYGTASGTHGLYFCAYCARLYNIEQQLLSMFGDTDGKRDAMLRFTKPVTGGYYFAPSLDKLLAL", "B9": "protein (Streptomyces coelicolor, UniProt Q9K464); chain MAAYLCAPAVIHGEHSVETREIVEEVRGRHPHAPWAPRIDGIAASTGIESRGWMLPLEAAVAPGGGGDLGAAREALVRDGFTEQDANRAIAALKAVPASQTVQERTAPAWEAVQAYGERAARGALQIAGLDVADVDCLITSNSTTPALPGLDVALANRLPLRGDTMLLPATQWACVAGTRSLALAADLVAADPDRVVLVVISEALSTTYQPADDTLESLIVRLLFADTAVAAVVTGRPRPESVLRLDAAWHHTLPGTRDLHRLETRADGTHFVMDRRGPRAVQETVTAMWEWLRVRYEDDPSSWHPDVLLAHPGGTRVLEYMEQTMPDEWPSGLLSYSRDSYTSGNRGGAAVFDILRRAHDAGQKTGSRAVLYAAAPGLTATALEGEWL", "B10": "enzyme (Bacillus pumilus, UniProt A8FFI9); chain EARSIAWSVDEFFKNREGTFVIQEVKEKSPWVYNKKRAKERFAPQSTFKVANALIGLQTGAVRDEYDIKYWDGVKREIDNWNRDHTLGSGMRDSVVWYYQAMARDIGEERMNHWVKAIHYGNKDISGGIDQFWLSSTLRISPIEQVRFLKQLYEETLPFDLKNMRTVKRMMVQEEEKHATLYGKTGSGSDIGWYVGFIKHEHKTYILATNIKGTGIEAKDITYRILKKYHLMEASV", "note": "Lines come from different studies, so protocols differ.", "sequence of UniProt P11509 (whole entry, looked up)": "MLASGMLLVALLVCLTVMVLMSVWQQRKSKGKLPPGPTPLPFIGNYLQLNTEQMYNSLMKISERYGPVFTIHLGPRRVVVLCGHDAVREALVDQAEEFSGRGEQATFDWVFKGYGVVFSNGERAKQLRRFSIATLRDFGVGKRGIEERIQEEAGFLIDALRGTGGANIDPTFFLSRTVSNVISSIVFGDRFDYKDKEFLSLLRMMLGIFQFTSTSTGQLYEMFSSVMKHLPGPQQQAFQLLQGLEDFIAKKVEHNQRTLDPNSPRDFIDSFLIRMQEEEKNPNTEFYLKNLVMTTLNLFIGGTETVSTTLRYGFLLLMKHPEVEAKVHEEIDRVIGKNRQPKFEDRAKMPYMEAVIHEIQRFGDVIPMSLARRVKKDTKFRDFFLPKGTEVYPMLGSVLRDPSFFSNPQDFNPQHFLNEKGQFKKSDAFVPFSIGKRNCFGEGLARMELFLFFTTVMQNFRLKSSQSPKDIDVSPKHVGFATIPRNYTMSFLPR", "sequence of UniProt O34714 (whole entry, looked up)": "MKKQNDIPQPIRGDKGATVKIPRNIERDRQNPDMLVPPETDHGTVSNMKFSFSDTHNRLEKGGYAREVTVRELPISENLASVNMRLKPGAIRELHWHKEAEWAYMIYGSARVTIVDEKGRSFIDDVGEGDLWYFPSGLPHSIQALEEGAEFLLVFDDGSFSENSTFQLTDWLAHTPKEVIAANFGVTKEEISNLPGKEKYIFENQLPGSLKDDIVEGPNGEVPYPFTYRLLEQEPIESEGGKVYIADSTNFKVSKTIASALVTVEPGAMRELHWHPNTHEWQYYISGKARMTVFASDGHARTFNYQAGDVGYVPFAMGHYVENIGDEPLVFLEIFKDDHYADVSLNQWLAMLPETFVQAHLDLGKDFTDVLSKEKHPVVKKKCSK"}
{"Molecule": "B1 (ERAP1)", "substrate": "CC(C)C[C@H](N)C(=O)N[C@@H](CO)C(=O)N[C@@H](CCCNC(=N)N)C(=O)N[C@@H](Cc1c[nH]cn1)C(=O)N[C@@H](Cc1c[nH]cn1)C(=O)N[C@@H](C)C(=O)N[C@@H](Cc1ccccc1)C(=O)N[C@@H](CO)C(=O)N[C@@H](Cc1ccccc1)C(=O)N[C@@H](CCCNC(=N)N)C(=O)O", "setting": "25 °C", "Km [µM]": 2.4}
{"Molecule": "B2 (GTPBP3 E459K)", "substrate": "Nc1nc2c(ncn2[C@@H]2O[C@H](COP(=O)(O)OP(=O)(O)OP(=O)(O)O)[C@@H](O)[C@H]2O)c(=O)[nH]1", "setting": "pH 8, 37 °C, KCl 300 mM", "Km [µM]": 12}
{"Molecule": "B3 (UGT1A9)", "substrate": "COc1cc(-c2cc(=O)c3c(O)cc(O)cc3o2)cc(OC)c1OC", "setting": "pH 7.4, 37 °C", "Km [µM]": 0.45}
{"Molecule": "B4 (ltaE H83N)", "substrate": "C[C@H](O)[C@H](N)C(=O)O", "setting": "pH 7, 30 °C, potassium phosphate 20 mM, retro-aldol cleavage, added: PLP 500 µM", "Km [µM]": 1700}
{"Molecule": "B5 (acryloyl-CoA reductase)", "substrate": "C=CC(=O)SCCNC(=O)CCNC(=O)[C@H](O)C(C)(C)COP(=O)(O)OP(=O)(O)OC[C@H]1O[C@@H](n2cnc3c(N)ncnc32)[C@H](O)[C@@H]1OP(=O)(O)O", "setting": "pH 6.5, 65 °C, substrate made in situ, added: ATP, CoA, NADPH", "Km [µM]": 9.1}
{"Molecule": "B6 (cyc1 L72V)", "substrate": "CC(C)=CCC/C(C)=C/CC/C(C)=C/CO[P@@](=O)(O)OP(=O)(O)O", "setting": "pH 6.5, 30 °C, added: MgCl2 10 mM", "Km [µM]": 0.6}
{"Molecule": "B7 (putA N1014A)", "substrate": "O=C(O)[C@@H]1CCCN1", "setting": "pH 8, 23 °C", "Km [µM]": 44500}
{"Molecule": "B8 (protein)", "substrate": "CCn1c(=NN=c2sc3cc(S(=O)(=O)O)ccc3n2CC)sc2cc(S(=O)(=O)O)ccc21", "setting": "pH 3.5, 25 °C, added: H2O2", "Km [µM]": 607}
{"Molecule": "oxdC (Bacillus subtilis, UniProt O34714)", "substrate": "O=C(O)C(=O)O", "setting": "pH 4.2, added: Mn 1.87 per monomer, Triton X-100.2%", "Km [µM]": 8400}
{"Molecule": "CYP2A6 (Homo sapiens, UniProt P11509)", "substrate": "CN1C(=O)CC[C@H]1c1cccnc1", "test system": "microsomes", "setting": "pH 6.7, cotinine to COX, not purified", "Km [µM]": 390}
{"Molecule": "B9 (protein)", "substrate": "CC(=O)CC(=O)SCCNC(=O)CCNC(=O)[C@H](O)C(C)(C)COP(=O)(O)OP(=O)(O)OC[C@H]1O[C@@H](n2cnc3c(N)ncnc32)[C@H](O)[C@@H]1OP(=O)(O)O", "setting": "pH 7.8, 30 °C, NaCl 150 mM, added: methylmalonyl-CoA 1.0 mM", "Km [µM]": 75.2}
{"Molecule": "B10 (enzyme)", "substrate": "C[C@@H](O)[C@H]1C(=O)N2C(C(=O)O)=C(SCCN=CN)C[C@H]12", "setting": "pH 7", "Km [µM]": 6.6}
{"note": "A few entries again:"}
{"Molecule": "B8 (protein)", "substrate": "CCn1c(=NN=c2sc3cc(S(=O)(=O)O)ccc3n2CC)sc2cc(S(=O)(=O)O)ccc21", "setting": "pH 3.5, 25 °C, added: H2O2", "Km [µM]": 607}
{"Molecule": "oxdC (Bacillus subtilis, UniProt O34714)", "substrate": "O=C(O)C(=O)O", "setting": "pH 4.2, added: Mn 1.87 per monomer, Triton X-100.2%", "Km [µM]": 8400}
